Measured values from different studies.
Protocols differ between the studies behind these lines. ± gives the spread as reported.
NR3C1: Glucocorticoid receptor (NR3C1, Homo sapiens, UniProt P04150)
Dual specificity protein phosphatase 6: Dual specificity protein phosphatase 6 (Homo sapiens, UniProt Q16828)

Protein sequences, listed by entry. Tags and fused reporters are not part of them. Lines headed by an entry give the natural chain unless they say otherwise; changes in a name come on top. Residues count along the entry.
UniProt P04150, whole entry: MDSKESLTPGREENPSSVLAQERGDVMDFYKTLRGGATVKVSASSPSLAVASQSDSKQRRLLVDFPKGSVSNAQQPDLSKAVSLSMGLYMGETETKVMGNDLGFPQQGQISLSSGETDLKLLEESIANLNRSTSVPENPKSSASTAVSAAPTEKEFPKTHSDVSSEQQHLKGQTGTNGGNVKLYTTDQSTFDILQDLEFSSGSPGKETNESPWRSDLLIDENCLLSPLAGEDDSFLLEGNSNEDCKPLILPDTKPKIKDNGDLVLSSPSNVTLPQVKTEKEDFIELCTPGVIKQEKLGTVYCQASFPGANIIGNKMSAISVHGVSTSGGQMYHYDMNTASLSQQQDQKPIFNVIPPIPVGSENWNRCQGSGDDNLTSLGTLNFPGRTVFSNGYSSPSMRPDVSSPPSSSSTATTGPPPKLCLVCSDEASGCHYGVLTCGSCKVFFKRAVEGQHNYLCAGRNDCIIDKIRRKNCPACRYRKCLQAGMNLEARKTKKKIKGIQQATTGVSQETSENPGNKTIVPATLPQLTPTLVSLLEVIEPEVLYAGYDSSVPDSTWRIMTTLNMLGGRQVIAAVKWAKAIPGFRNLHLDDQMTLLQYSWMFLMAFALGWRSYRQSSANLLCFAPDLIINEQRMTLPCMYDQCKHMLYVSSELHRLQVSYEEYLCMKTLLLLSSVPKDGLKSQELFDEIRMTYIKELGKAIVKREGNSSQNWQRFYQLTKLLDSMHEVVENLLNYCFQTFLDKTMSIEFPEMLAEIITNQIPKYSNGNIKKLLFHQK
UniProt Q16828, whole entry: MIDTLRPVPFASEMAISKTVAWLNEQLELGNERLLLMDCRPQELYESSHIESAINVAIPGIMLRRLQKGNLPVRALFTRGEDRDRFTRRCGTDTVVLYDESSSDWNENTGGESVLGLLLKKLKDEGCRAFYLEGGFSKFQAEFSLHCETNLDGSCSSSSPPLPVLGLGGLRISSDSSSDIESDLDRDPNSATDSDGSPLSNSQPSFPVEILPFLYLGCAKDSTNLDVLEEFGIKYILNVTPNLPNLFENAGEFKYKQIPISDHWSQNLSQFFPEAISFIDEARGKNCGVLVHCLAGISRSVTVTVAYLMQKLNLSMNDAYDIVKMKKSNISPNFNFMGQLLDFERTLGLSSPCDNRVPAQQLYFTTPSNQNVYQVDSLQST
UniProt Q99720, whole entry: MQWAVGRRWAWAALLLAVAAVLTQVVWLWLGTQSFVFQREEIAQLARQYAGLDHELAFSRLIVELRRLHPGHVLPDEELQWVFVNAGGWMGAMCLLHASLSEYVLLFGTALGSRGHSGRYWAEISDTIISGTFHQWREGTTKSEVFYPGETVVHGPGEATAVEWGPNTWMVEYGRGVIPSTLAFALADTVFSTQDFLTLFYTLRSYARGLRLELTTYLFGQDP
UniProt Q9NRA0, whole entry: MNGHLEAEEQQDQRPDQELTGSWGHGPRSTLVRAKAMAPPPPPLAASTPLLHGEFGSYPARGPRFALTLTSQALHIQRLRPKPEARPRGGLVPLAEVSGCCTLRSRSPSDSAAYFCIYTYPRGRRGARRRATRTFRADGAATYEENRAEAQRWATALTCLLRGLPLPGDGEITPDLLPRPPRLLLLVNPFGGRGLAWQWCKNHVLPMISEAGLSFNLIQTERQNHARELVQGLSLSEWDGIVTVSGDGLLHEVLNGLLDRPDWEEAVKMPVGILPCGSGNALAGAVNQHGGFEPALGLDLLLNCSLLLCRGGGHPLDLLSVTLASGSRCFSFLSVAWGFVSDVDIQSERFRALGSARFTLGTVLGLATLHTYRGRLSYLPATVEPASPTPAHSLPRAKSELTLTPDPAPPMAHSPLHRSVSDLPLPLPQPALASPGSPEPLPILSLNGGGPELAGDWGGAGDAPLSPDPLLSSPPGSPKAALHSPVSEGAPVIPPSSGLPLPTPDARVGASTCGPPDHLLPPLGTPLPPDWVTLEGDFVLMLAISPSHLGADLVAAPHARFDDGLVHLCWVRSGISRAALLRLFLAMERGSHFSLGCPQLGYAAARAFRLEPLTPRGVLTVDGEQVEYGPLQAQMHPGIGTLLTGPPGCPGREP
UniProt Q9UPY5, whole entry: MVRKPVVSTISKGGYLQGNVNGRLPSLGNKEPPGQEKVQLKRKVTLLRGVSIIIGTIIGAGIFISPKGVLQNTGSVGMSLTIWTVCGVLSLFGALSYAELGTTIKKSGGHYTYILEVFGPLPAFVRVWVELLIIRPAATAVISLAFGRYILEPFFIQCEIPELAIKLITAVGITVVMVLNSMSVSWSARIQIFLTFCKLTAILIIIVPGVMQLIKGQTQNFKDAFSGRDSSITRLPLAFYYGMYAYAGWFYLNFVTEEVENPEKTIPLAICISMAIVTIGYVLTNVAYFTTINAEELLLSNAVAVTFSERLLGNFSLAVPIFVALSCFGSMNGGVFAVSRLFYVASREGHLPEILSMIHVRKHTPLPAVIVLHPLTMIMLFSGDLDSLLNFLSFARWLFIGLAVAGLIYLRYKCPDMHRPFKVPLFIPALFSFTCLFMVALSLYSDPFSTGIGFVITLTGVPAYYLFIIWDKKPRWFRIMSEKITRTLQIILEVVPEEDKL
UniProt Q9Y2R2, whole entry: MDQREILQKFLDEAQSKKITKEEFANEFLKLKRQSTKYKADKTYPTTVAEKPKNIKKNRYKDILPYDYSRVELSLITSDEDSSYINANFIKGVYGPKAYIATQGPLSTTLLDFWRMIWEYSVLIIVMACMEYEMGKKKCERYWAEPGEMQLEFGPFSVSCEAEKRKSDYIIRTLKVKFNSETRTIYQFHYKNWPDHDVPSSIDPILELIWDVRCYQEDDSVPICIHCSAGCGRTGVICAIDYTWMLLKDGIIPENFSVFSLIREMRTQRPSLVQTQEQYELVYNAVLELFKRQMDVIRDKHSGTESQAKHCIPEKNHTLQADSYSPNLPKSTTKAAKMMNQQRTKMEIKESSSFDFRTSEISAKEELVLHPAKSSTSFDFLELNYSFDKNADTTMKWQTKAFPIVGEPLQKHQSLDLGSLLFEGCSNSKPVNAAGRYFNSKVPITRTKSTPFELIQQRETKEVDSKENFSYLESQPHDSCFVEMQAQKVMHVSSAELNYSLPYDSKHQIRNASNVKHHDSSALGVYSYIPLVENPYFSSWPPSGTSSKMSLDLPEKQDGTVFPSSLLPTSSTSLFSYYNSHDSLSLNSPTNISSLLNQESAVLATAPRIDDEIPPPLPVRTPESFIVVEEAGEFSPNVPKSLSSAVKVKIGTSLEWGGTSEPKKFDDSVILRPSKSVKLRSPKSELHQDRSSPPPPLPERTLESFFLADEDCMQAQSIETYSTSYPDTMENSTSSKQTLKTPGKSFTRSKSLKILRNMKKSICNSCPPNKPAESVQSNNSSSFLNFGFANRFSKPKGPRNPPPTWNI
UniProt P18031, whole entry: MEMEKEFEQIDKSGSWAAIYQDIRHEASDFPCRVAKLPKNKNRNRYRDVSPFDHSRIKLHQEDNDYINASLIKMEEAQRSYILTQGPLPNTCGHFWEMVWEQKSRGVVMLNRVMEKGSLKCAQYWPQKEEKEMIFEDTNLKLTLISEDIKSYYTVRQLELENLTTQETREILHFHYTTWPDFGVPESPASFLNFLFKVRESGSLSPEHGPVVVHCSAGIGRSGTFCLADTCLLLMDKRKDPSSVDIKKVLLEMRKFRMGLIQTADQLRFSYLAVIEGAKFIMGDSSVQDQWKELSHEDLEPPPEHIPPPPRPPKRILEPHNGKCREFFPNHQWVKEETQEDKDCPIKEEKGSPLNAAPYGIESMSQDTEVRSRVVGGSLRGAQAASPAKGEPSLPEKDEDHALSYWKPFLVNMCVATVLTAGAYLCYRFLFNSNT
UniProt O14618, whole entry: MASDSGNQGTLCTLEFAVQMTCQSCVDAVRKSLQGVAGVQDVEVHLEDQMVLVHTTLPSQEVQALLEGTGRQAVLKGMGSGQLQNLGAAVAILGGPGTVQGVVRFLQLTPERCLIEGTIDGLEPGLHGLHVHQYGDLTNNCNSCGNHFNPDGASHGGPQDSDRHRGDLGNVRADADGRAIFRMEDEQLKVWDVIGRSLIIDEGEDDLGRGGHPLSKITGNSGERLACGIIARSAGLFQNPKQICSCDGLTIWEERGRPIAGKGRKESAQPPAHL
UniProt P23204, whole entry: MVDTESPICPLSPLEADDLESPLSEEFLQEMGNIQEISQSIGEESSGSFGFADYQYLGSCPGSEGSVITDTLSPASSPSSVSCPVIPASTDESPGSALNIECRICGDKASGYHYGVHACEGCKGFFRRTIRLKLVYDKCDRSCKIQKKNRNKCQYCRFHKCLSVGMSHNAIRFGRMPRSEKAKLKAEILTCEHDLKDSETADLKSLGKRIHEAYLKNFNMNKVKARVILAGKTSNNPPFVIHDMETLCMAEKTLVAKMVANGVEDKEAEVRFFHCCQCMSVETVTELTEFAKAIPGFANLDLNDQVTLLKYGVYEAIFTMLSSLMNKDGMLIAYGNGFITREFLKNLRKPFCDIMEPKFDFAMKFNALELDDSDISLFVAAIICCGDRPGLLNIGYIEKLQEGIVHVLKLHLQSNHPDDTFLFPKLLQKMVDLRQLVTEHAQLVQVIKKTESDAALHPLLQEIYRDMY
UniProt P08913, whole entry: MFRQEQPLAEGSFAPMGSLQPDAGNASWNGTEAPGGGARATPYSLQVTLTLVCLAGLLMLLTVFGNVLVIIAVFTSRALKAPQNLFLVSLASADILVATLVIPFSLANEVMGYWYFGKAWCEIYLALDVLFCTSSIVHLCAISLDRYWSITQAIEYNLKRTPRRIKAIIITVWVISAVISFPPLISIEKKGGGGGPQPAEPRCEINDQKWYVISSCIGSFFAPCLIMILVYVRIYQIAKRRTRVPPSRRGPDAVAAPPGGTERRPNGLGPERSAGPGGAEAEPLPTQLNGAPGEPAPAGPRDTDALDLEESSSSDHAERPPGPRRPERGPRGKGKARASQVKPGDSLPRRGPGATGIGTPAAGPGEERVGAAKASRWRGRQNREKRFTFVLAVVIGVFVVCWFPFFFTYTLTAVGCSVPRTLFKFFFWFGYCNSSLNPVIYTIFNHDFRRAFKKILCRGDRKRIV
UniProt P07948, whole entry: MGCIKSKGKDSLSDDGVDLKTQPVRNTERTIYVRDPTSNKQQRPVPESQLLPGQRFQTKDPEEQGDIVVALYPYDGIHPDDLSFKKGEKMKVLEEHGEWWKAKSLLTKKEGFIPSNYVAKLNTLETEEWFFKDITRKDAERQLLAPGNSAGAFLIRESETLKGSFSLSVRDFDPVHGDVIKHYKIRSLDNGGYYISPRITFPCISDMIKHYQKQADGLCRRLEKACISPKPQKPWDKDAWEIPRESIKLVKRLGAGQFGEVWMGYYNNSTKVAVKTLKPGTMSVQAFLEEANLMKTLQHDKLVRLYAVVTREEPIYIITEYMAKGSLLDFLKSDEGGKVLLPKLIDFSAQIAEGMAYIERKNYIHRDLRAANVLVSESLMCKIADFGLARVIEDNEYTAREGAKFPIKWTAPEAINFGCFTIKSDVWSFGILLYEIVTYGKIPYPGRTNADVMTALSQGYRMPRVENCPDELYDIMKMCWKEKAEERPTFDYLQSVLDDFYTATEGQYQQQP
UniProt Q60492, whole entry: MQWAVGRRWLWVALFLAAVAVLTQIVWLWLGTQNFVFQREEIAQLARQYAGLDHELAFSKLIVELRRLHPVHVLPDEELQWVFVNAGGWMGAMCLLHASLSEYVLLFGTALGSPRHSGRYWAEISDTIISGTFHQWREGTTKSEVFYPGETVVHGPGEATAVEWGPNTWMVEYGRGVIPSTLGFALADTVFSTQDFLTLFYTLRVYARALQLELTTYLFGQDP
UniProt P10688, 11-140 limits assumed: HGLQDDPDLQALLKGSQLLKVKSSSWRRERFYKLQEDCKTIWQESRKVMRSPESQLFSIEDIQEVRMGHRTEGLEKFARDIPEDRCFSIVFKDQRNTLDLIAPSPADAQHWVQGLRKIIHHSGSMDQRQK
UniProt Q92731, whole entry: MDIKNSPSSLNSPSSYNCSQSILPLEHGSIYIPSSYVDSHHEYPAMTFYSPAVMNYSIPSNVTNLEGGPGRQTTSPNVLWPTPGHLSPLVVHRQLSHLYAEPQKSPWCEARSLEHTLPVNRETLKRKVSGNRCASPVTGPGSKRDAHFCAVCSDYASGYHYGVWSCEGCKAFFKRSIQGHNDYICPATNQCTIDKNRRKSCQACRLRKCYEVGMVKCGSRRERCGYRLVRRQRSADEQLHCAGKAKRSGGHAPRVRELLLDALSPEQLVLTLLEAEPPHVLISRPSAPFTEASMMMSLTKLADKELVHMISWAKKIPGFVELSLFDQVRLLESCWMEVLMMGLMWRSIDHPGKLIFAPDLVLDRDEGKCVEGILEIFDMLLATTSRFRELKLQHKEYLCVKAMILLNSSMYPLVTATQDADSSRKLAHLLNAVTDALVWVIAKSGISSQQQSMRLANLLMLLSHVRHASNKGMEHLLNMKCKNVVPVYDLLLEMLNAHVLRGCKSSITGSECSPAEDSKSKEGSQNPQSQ

`CC1=Cc2ccccc2C12CCN(C1Cc3ccccc3CC1O)CC2` (single isomer, unassigned) has a Ki of 0.47 ± 0.23 µM (SIGMAR1 (Homo sapiens, UniProt Q99720); binding, radioligand displacement; together with: [3H](+)-pentazocine).
`COC(=O)CC[C@@H](C)C1CC[C@H]2[C@H]3CC[C@H]4C[C@@H]5CC[C@@]4(C)[C@@]3(O5)[C@@H](Br)[C@@H](Br)[C@@]12C` (stereo partly drawn) gave an EC50 of greater than 9 µM (NR3C1; nuclear translocation, agonist, enzyme fragment complementation).
For `O=C1C(=Cc2ccc(O)c(O)c2)Oc2ccccc21`, the Ki was 20 µM (SPHK2 (Homo sapiens, UniProt Q9NRA0); inhibitor, FlashPlate).
`C[C@H]1C[C@@H]2[C@H]3CCC4=CC(=O)C=C[C@@]4(C)[C@]3(Cl)[C@@H](Cl)C[C@]2(C)[C@]1(O)C(=O)COP(=O)(O)O` has an EC50 of 7.37 µM (NR3C1; nuclear translocation, agonist, enzyme fragment complementation).
For `Nc1c(N=Nc2ccc(Oc3ccc(N=Nc4cc(S(=O)(=O)O)c5ccccc5c4N)cc3)cc2)cc(S(=O)(=O)O)c2ccccc12`, the Ki was 11 ± 1.3 µM (Cystine/glutamate transporter, with SLC3A2 (SLC7A11, Homo sapiens, UniProt Q9UPY5); L-glutamate uptake, inhibitor; SNB-19; together with: 3H-L-glutamate).
`C=C(C)COc1ccc2c(c1)CC[C@@H]1[C@H]3C/C(=N\O)C(=O)[C@@]3(C)CC[C@@H]21` has an EC50 of greater than 9 µM (NR3C1; nuclear translocation, agonist, enzyme fragment complementation).
The remaining binding of `Fc1cccc(-n2cnc3c(NCc4nc5cc(Cl)ccc5[nH]4)nc(N4CCNCC4)nc32)c1` is reported as 10% (FLT3 (Homo sapiens, UniProt P36888, D835Y); KINOMEscan competition binding; 10 µM; relative to: control).
For `CC(C)[C@@H](C)/C=C\[C@@H](C)[C@@H]1CC[C@H]2C3=CC=C4C[C@@H](O)CC[C@]4(C)[C@H]3CC[C@]21C`, the EC50 was greater than 9 µM (NR3C1; nuclear translocation, agonist, enzyme fragment complementation).
The IC50 of `O=c1/c(=C/c2ccccc2Cl)sc2nc3cc(Br)cnc3n12` is reported as greater than 100 µM (Dual specificity protein phosphatase 6; phosphatase activity, inhibitor; together with: OMFP).
`CN1CC[C@@H]2C[C@@H]1c1cc(-c3ccc(C(F)(F)F)cc3)ccc12` gave a Ki of 0.755 µM (ADRA2C (Homo sapiens, UniProt P18825); radioligand competition binding).
`O=c1/c(=C/c2ccc(-c3cc(Cl)cc(Cl)c3)o2)sc2nc3cc(Br)cnc3n12` gave an IC50 of greater than 100 µM (PTPN22 (Homo sapiens, UniProt Q9Y2R2); phosphatase activity, inhibitor; together with: OMFP).
With `COc1cc(CC(=O)NCC(NC(=O)C(CCCNC(=O)c2cccc(I)c2)NC(=O)C(Cc2ccc(C(F)(F)P(=O)(O)O)cc2)NC(=O)c2ccc(C)c(Br)c2)C(N)=O)ccc1O` (stereo not drawn) the Ki was 0.63 µM (PTPN1 (Homo sapiens, UniProt P18031); enzyme activity, inhibitor).
For `Cc1cc(C)c2nc3s/c(=C\c4ccc(-c5ccccc5C(=O)O)o4)c(=O)n3c2c1`, the IC50 was 17 µM (Dual specificity protein phosphatase 6; phosphatase activity, inhibitor; together with: OMFP).
`CC(=O)O[C@H]1CC[C@@]2(C)C(=CC[C@@H]3[C@H]4CC[C@@H]([C@H](C)C(=O)O)[C@]4(C)CC[C@H]32)C1` has an EC50 of greater than 9 µM (NR3C1; nuclear translocation, agonist, enzyme fragment complementation).
For `Nc1c(C(=O)Nc2c(F)cc(F)cc2Br)sc2nc3c(cc12)CCC3`, the Kd was roughly 8.2 µM (Copper chaperone for superoxide dismutase (CCS, Homo sapiens, UniProt O14618); binding, FRET; pH 7.1).
`CCCCCCCCCCCCCCCC(=O)O` has an EC50 of 190 µM (Ppara (Mus musculus, UniProt P23204); coactivator recruitment, agonist, biolayer interferometry, measured: PGC-1alpha peptide; pH 7.4, 25 °C, 0.1% fatty acid-free BSA).
`CN1CCN(c2ccc3c(c2)[C@H]2C[C@H]3CCN2S(=O)(=O)c2cc(Cl)cc(Cl)c2)CC1` has a Ki of 0.162 µM (ADRA2A (Homo sapiens, UniProt P08913); radioligand competition binding).
The EC50 of `CC(=O)O[C@H]1CC[C@]2(C)C(=CC[C@H]3[C@H]4C[C@H]5O[C@]6(CC[C@H](C)CN6)[C@H](C)[C@@H]5[C@]4(C)CC[C@@H]32)C1` is reported as greater than 9 µM (NR3C1; nuclear translocation, agonist, enzyme fragment complementation).
For `CCN1CCN(Cc2ccc(NC(=O)c3ccc(C)c(Oc4ncnc5cc(OC)c(OC)cc45)c3)cc2C(F)(F)F)CC1`, the IC50 was 0.0001 µM (LYN (Homo sapiens, UniProt P07948); enzyme activity, Z'-LYTE; together with: ATP at Km).
With `O=C(c1ccc(OCCF)cc1)C1CCN(C2Cc3ccccc3CC2O)CC1` (single isomer, unassigned) the Ki was 7.38 ± 1.24 µM (SIGMAR1 (Cavia porcellus, UniProt Q60492); radioligand displacement; together with: (+)-[3H]pentazocine).
With `O=c1/c(=C/c2ccc(-c3ccccc3[N+](=O)[O-])o2)sc2nc3cc(Br)cnc3n12` the IC50 was 57 µM (Dual specificity protein phosphatase 6; phosphatase activity, inhibitor; together with: OMFP).
`CC(C)C[C@H]1NC(=O)[C@H]([C@@H](C)O)NC(=O)[C@@H](CN)NC(=O)[C@H](CCCNC(=N)N)NC(=O)[C@@H](Cc2ccccc2)NC(=O)[C@H](Cc2ccccc2)NC1=O` gave an EC50 of 4.1 µM (20S proteasome core particle; proteasome activity, activator).
`CC(=O)O[C@H]1CC[C@@]2(C)C(=CC[C@@H]3[C@@H]4CC[C@H](c5cc(C(F)(F)F)n(C(C)=O)n5)[C@]4(C)CC[C@@H]32)C1` gave an EC50 of greater than 9 µM (NR3C1; nuclear translocation, agonist, enzyme fragment complementation).
For `CCCCCCCC(=O)OCC(COP(=O)(O)OC1C(O)C(O)C(OP(=O)(O)O)C(OP(=O)(O)O)C1O)OC(=O)CCCCCCC` (stereo not drawn), the Kd was 1.3 ± 0.2 µM (1-phosphatidylinositol 4,5-bisphosphate phosphodiesterase delta-1, PH domain (Plcd1, Rattus norvegicus, UniProt P10688); membrane binding, sedimentation; LUVs without PtdSer).
For `O=C(Nc1cccnn1)N1CC(Oc2ccc(-c3ccccc3F)cn2)C1`, the Emax was roughly 8 ng/mL (Emax model of Ctrough concentration-response, measured: plasma OEA; human, plasma; oral, repeated daily dosing).
With `O=c1c(O[C@@H]2O[C@H](CO)[C@@H](O)[C@H](O)[C@H]2O)c(-c2cc(O)c(O[C@@H]3O[C@H](CO)[C@@H](O)[C@H](O)[C@H]3O)c(O)c2)oc2cc(O)cc(O)c12` the EC50 was 2.01 µM (ESR2 (Homo sapiens, UniProt Q92731); DNA binding array formation, agonist; PRL-HeLa expressing GFP-ESR2; 1 h).
`C[C@]12CC[C@H]3c4ccc(O)cc4CC[C@@H]3[C@H]1C/C(=N/O)[C@H]2O` has an EC50 of greater than 9 µM (NR3C1; nuclear translocation, agonist, enzyme fragment complementation).

For quick reference, copied from above:
The IC50 of `O=c1/c(=C/c2ccccc2Cl)sc2nc3cc(Br)cnc3n12` is reported as greater than 100 µM (Dual specificity protein phosphatase 6; phosphatase activity, inhibitor; together with: OMFP).
`CN1CC[C@@H]2C[C@@H]1c1cc(-c3ccc(C(F)(F)F)cc3)ccc12` gave a Ki of 0.755 µM (ADRA2C (Homo sapiens, UniProt P18825); radioligand competition binding).
`O=c1/c(=C/c2ccc(-c3cc(Cl)cc(Cl)c3)o2)sc2nc3cc(Br)cnc3n12` gave an IC50 of greater than 100 µM (PTPN22 (Homo sapiens, UniProt Q9Y2R2); phosphatase activity, inhibitor; together with: OMFP).
With `COc1cc(CC(=O)NCC(NC(=O)C(CCCNC(=O)c2cccc(I)c2)NC(=O)C(Cc2ccc(C(F)(F)P(=O)(O)O)cc2)NC(=O)c2ccc(C)c(Br)c2)C(N)=O)ccc1O` (stereo not drawn) the Ki was 0.63 µM (PTPN1 (Homo sapiens, UniProt P18031); enzyme activity, inhibitor).
For `Cc1cc(C)c2nc3s/c(=C\c4ccc(-c5ccccc5C(=O)O)o4)c(=O)n3c2c1`, the IC50 was 17 µM (Dual specificity protein phosphatase 6; phosphatase activity, inhibitor; together with: OMFP).
